Experimental data from different studies.
Each line is one published result; not all experiments were run side by side. ± gives the spread as reported.

`CC(C)c1nc(N(C)S(C)(=O)=O)nc(-c2ccc(F)cc2)c1/C=C/[C@@H](O)C[C@@H](O)CC(=O)O` gave a Cmax of 2.6 ng/mL (human, plasma; oral, 10 mg, with: vepdegestrant 200 mg).
The Cmax of `Cc1ccc(C)c(OCCCC(C)(C)C(=O)O)c1` is reported as 28000 ng/mL (human, plasma; oral, 600 mg single, before lopinavir/ritonavir, geometric mean).
The Cmax of `N#CCNC(=O)c1ccc(-c2ccnc(Nc3ccc(N4CCOCC4)cc3)n2)cc1` is reported as 528 ng/mL (healthy human volunteers, plasma; oral, 200 mg single dose, day 1, fasted, given alone).
`N#Cc1cc(NC(=O)[C@H]2c3ccccc3C(=O)N(CC(F)(F)F)[C@@H]2c2cccnc2)ccc1F` gave a Cmax of 242 ng/mL (human, plasma; oral, 150 mg, median).
For `CCN1CCN(Cc2ccc(Nc3ncc(F)c(-c4cc(F)c5nc(C)n(C(C)C)c5c4)n3)nc2)CC1`, the Cmax was 95.2 ng/mL (healthy human, fasted; oral, 150 mg, tablet).
For `COc1cc(Nc2ncc3c(n2)-c2ccc(Cl)cc2C(c2c(F)cccc2OC)=NC3)ccc1C(=O)O`, the Cmax was 1300 ng/mL (human patients, plasma; oral, 40 mg twice daily, day 7, with: pembrolizumab).
The Cmax of `Nc1ccc(S(=O)(=O)Nc2ccccn2)cc1` is reported as 5800 ng/mL (human; oral, 1000 mg, day 1, sulfasalazine alone).
With `C[C@H](CCC(=O)NCC(=O)O)[C@H]1CC[C@H]2[C@@H]3CC[C@@H]4C[C@H](OS(=O)(=O)O)CC[C@]4(C)[C@H]3C[C@H](O)[C@]12C` the Cmax was 458 ± 139 nM (human, plasma; concentration not given, endogenous baseline diurnal).
The Cmax of `COCCc1ccc(OCC(O)CNC(C)C)cc1` (stereo not drawn) is reported as 35.7 ng/mL (human; dose not given, alone).
The Cmax of `NC1(C(=O)N[C@@H](CCO)c2ccc(Cl)cc2)CCN(c2ncnc3[nH]ccc23)CC1` is reported as 982 ng/mL (human patients, plasma; oral, 320 mg twice daily, day 8).
`CCO` gave a Cmax of 65.9 ± 10.9 mg/100 mL (human, breath; 0.5 g/kg, with: 10 mg co-dosed drug).
The Cmax of `Cn1nnc2c(C(N)=O)ncn2c1=O` is reported as 430 ng/mL (human patients, plasma; oral, 20 mg/m2, day 5, dose level DL3, median, with: talazoparib 600 µg/m2).
The Cmax of `COc1cc(C(=O)NC2CCN(C)CC2)c(F)cc1Nc1ncc(C(F)(F)F)c(Oc2cccc3c2C(=O)N(C)C3)n1` is reported as 1640 nM (human, Japanese, plasma; oral, 200 mg single dose, geometric mean).
For `C[C@H](CCC(=O)O)[C@H]1CC[C@H]2[C@@H]3[C@H](O)C[C@@H]4C[C@H](O)CC[C@]4(C)[C@H]3C[C@H](O)[C@]12C`, the Cmax was 113 ± 41 nM (human, plasma; concentration not given, endogenous baseline diurnal).
`C#Cc1cccc(Nc2ncnc3cc(OCCOC)c(OCCOC)cc23)c1` has a Cmax of 1640 ± 680 nM (human, plasma; oral, 50 mg daily, day 8, with: docetaxel).
`Cc1cc(-c2nccc3c2ccn3CC(=O)Nc2ccc(-c3cnccn3)cn2)ccn1` gave a Cmax of 186 nM (human, plasma; oral, 20 mg once daily, day 1, geometric mean).
`COc1ccc2[nH]c([S@+]([O-])Cc3ncc(CO)c(OC)c3C)nc2c1` has a Cmax of 80.9 nM (human, dried plasma spots; 5 mg racemic omeprazole).
`Cc1ccc([C@@H]2O[C@H](CO)[C@@H](O)[C@H](O)[C@H]2O)cc1Cc1ccc(-c2ccc(F)cc2)s1` gave a Cmax of 2410 ng/mL (human, maintenance hemodialysis patients; oral, 300 mg once daily, steady state, median).
`Cn1ncnc1[C@H]1c2n[nH]c(=O)c3cc(F)cc(c23)N[C@@H]1c1ccc(F)cc1` has a Cmax of 16.4 ng/mL (human patients, plasma; oral, 600 µg/m2 twice daily day 1, day 5, dose level DL3, median, with: temozolomide 20 mg/m2 daily days 2-6).
The Cmax of `CN1CCC(COc2cnc(-c3cccc(Cn4nc(-c5cccc(C#N)c5)ccc4=O)c3)nc2)CC1` is reported as 308 ng/mL (human; 500 mg, day 1, single dose alone, geometric mean).
The Cmax of `C[C@H](O)c1cc(C(=O)N[C@@H](C)Cn2ccc(-c3ccc(C#N)c(Cl)c3)n2)n[nH]1` is reported as 1940 pg eq/mL (healthy male human, plasma; intravenous infusion, 100 µg 14C-labelled, 15 min infusion, microtracer, geometric mean).
For `Nc1ccc(-c2nc([C@H]3CCc4cc(-c5cc(Cl)ccc5-n5cnnn5)cc(=O)n43)c(F)[nH]2)c(F)n1`, the Cmax was 1060 ng/mL (human, plasma; oral, 150 mg once daily, day 1).
With `COc1ccc2[nH]c([S@+]([O-])Cc3ncc(C)c(OC)c3C)nc2c1` the Cmax was 161 ng/mL (human, dried blood spots; oral, 10 mg omeprazole, with: voriconazole).
`NC(=S)NN=Cc1ncccc1N` has a Cmax of 318 ng/mL (human, plasma; intravenous, 50 mg, geometric mean, infusion over 2 h).
For `C=CC(=O)N1CCC[C@@H](n2c(=O)n(-c3ccc(Oc4ccccc4)cc3)c3c(N)nccc32)C1`, the Cmax was 11.5 ng/mL (human, fed, plasma; oral, 60 mg, geometric mean).
`NC[C@@]1(CC(=O)O)[C@@H]2CC[C@H]3C[C@@H]2[C@@H]1C3` gave a Cmax of 410 ng/mL (human, moderately renal impairment, plasma; geometric least squares mean).
For `CC(C)=CCC/C(C)=C/CC/C(C)=C/CC[C@@](C)(O)CCC1=C(C)C(=O)C(C)=C(C)C1=O`, the Cmax was 1330 ng/mL (healthy human, plasma; oral, 400 mg, single dose, alone).
The Cmax of `N#C[C@H](C[C@@H]1CCCNC1=O)NC(=O)[C@H](CC1CC1)NC(=O)c1cc2cccc(Cl)c2[nH]1` is reported as 1100 ng/mL (human; 150 mg once daily, day 5).
`C[C@H](CCC(=O)NCC(=O)O)[C@H]1CC[C@H]2[C@@H]3[C@H](O)C[C@@H]4C[C@H](O)CC[C@]4(C)[C@H]3C[C@H](O)[C@]12C` has a Cmax of 188 ± 32 nM (human, plasma; concentration not given, endogenous baseline diurnal).
The Cmax of `CC1=C(c2cccc(O)c2)[C@H](c2ccc(OCCN3CC(CF)C3)cc2)Oc2ccc(O)cc21` is reported as 88 ng/mL (human, plasma; oral, 600 mg once daily, steady state geometric mean).
`Nc1ccn([C@@H]2O[C@H](CO)[C@@H](O)C2(F)F)c(=O)n1` gave a Cmax of 17700 ng/mL (HPLC-UV; human, plasma; intravenous, 800 mg/m^2, mean, before paricalcitol).
`CNC(=O)n1ccc2cc(Oc3ccnc(NC(=O)c4ccc(C5CCN(CCO)CC5)cc4)c3)c(OCCOC)cc21` gave a Cmax of 6.8 ng/mL (healthy human, plasma; oral, 35 mg, geometric mean, alone).
For `CC[C@H](C)[C@@H]([C@@H](CC(=O)N1CCC[C@H]1[C@H](OC)[C@@H](C)C(=O)N[C@@H](Cc1ccccc1)C(=O)NCCCO)OC)N(C)C(=O)[C@@H](NC(=O)[C@H](C(C)C)N(C)C)C(C)C`, the Cmax was 3.31 ng/mL (human patients, plasma; intravenous, 20 mg/m², cycle 1 geometric mean).
`Fc1ccc([C@@H]2CCNC[C@H]2COc2ccc3c(c2)OCO3)cc1` gave a Cmax of 31 ng/mL (human, all CYP2D6 genotypes; oral, 20 mg, steady state, geometric mean).
`Cc1ccc(C(=O)N(CCCN)C(c2nc3snc(C)c3c(=O)n2Cc2ccccc2)C(C)C)cc1` (stereo not drawn) has a Cmax of 87.1 ng/mL (human; intravenous, 16 mg/day, course day 3 following induction, geometric mean).
For `CCNCCCNC/C=C\CNCCCNCC`, the Cmax was 91.7 ng/mL (LC-MS/MS; human cancer patients, plasma; intravenous infusion 60 min, 50 mg, median, cycle 1).
For `CC(C)(Sc1ccncc1-c1ccc(C#N)c2ccccc12)C(=O)O`, the Cmax was 34.8 ng/mL (human, plasma; oral, 10 mg once daily, with: febuxostat 0 mg).
For `Cc1nc(Nc2ncc(C(=O)Nc3c(C)cccc3Cl)s2)cc(N2CCN(CCO)CC2)n1`, the Cmax was 13.6 ng/mL (human, plasma; oral, 100 mg).
`CC(C)[C@@H]1CC[C@@H](C)C[C@H]1OC(=O)O[C@@H](C)OC(=O)[C@H]1[C@@H]2C[C@H](F)[C@@](N)(C(=O)O)[C@@H]21` gave a Cmax of 42.3 ng/mL (human, plasma; oral, 20 mg, fasted, single dose).
For `NC1(C(=O)N[C@@H](CCO)c2ccc(Cl)cc2)CCN(c2nc[nH]c3nccc2-3)CC1`, the Cmax was 522 ng/mL (human patients, plasma; dose not given, cohort 160/400, cycle 2, geometric mean).
The Cmax of `CN1C(=O)[C@@H](NC(=O)c2nnc(Cc3ccccc3)[nH]2)COc2cccnc21` is reported as 3160 ng/mL (human, plasma; oral, 200 mg once daily, day 14, geometric mean).
`CCN(CC)Cc1cc(Nc2ccnc3cc(Cl)ccc23)ccc1O` gave a Cmax of 68.4 ng/mL (human, both sexes, plasma; oral, dose not given, non-fixed combination).
For `C[C@H](Oc1ccc(Br)cc1-c1ccon1)C(=O)O`, the Cmax was 24900 ng/mL (LC-MS/MS, non-compartmental; human, plasma; 400 mg once daily, day 1, multiple ascending dose, mean).
`COc1cc([C@@H]2[C@H]3CO[C@@]4(O)C(=O)[C@@H]2C=C([C@H]2Oc5cc(O)cc(O)c5C(=O)[C@@H]2O)[C@@H]34)ccc1O` gave a Cmax of 140 nM (OATP1B1/1B3 humanized mice, plasma; oral gavage, 500 mg/kg silymarin).
`CC(=O)O.NC(=O)c1cnc(N[C@@H]2CCCC[C@@H]2N)nc1Nc1cccc(-n2nccn2)c1` has a Cmax of 16.1 ng/mL (human, plasma; oral, 11 mg once daily).
For `O=C(Nc1cnccc1Cl)N1CCN(Cc2ccc3c(c2)OC(F)(F)O3)CC1`, the Cmax was 144 ng/mL (human healthy young men, plasma; oral, 25 mg once daily, day 1, multiple dose mean).
The Cmax of `CC(C)NC(=O)COc1cccc(-c2nc(Nc3ccc4[nH]ncc4c3)c3ccccc3n2)c1` is reported as 2510 ng/mL (human male, plasma; oral, 200 mg once daily, day 13, fed, geometric mean, with: rosuvastatin).
The Cmax of `Cc1cn(C(=O)c2c(-c3c(Cl)cc(Cl)cc3Cl)noc2C(C)(C)F)c2cccc(/C=C/C(=O)O)c12` is reported as 30300 ng/mL (human patients; 500 mg bid, cycle 8 day 1).
With `Cn1c(=O)oc2ccc(-c3ccc(C[C@@H](C#N)NC(=O)[C@@H]4CNCCCO4)cc3)cc21` the Cmax was 1240 nM (HPLC-MS/MS; healthy male humans, plasma; oral, 40 mg).
The Cmax of `COc1cc(Nc2c(C#N)cnc3cc(OCCCN4CCN(C)CC4)c(OC)cc23)c(Cl)cc1Cl` is reported as 64.3 ng/mL (human, moderate hepatic impairment (Child-Pugh), plasma; single dose, geometric mean, total drug).
`Cn1c(=O)oc2ccc(-c3ccc(C[C@@H](C#N)NC(=O)[C@@H]4CNCCCO4)cc3)cc21` has a Cmax of 183 ng/mL (human, mild renal impairment, plasma; oral, 25 mg single dose, mean).
`CO[C@@H]1[C@H](OC(=O)N2CC(CCN3CCOCC3)C2)CC[C@]2(CO2)[C@H]1[C@@]1(C)O[C@@H]1CC=C(C)C` gave a Cmax of 3.61 ± 1.73 ng/mL (humans, plasma; subcutaneous, 0.6 mg twice weekly, fifth dose).
The Cmax of `CN(C)C(=O)c1cc2cnc(Nc3ccc(N4CCNCC4)cn3)nc2n1C1CCCC1` is reported as 421 ng/mL (human, mild renal impairment, plasma; oral, 400 mg, geometric mean).
`Cc1cc(OCCOCCC(F)(F)P(=O)(O)O)ccc1CCc1cnc2c(N)nc3cc(CCC(=O)O)ccc3c2c1` gave a Cmax of 3.49 ng/mL (human, serum; intratumoral, 400 µg every 2 weeks, cycle 1 day 1).
`Cc1nc2ccc(F)cc2n1-c1nc(N)c(F)c(Nc2ccc(C(F)(F)F)cc2)n1` has a Cmax of 2210 ng/mL (human patients, plasma; oral, 400 mg twice weekly, cycles 1 and 2 pooled).
`Cc1cc(Nc2cc3ncccc3c(N[C@@H]3C[C@H]4CC[C@@H](C3)N4CCC#N)n2)n[nH]1` has a Cmax of 1.58 ng/mL (human, plasma; 80 mg, day 1, geometric mean).
The Cmax of `C[C@H](CCC(=O)NCC(=O)O)[C@H]1CC[C@H]2[C@@H]3CC[C@@H]4C[C@H](O)CC[C@]4(C)[C@H]3CC[C@]12C` is reported as 90.9 ± 31.2 nM (human, plasma; concentration not given, endogenous baseline diurnal).
For `COc1ccc([C@@H](O)c2cc(-c3ncnc4cc(N5CCOCC5)ccc34)c(F)cc2Cl)nn1`, the Cmax was 3190 ng/mL (human, plasma; oral, 400 mg twice daily, single dose, geometric mean).
With `CC(C)c1ncc(C(=O)N2CCOC3(CCN(Cc4ccc(F)c(CCNC[C@H](O)c5ccc(O)c6[nH]c(=O)sc56)c4)CC3)C2)s1` the Cmax was 0.45 nM (healthy human, plasma; inhaled or intranasal, dose not given).
The Cmax of `CNC(=O)c1ccccc1Sc1ccc2c(/C=C/c3ccccn3)n[nH]c2c1` is reported as 30.4 ng/mL (human, normal hepatic function (Child-Pugh), plasma; single dose, geometric mean, total drug).
